Published values from different studies.
Numbered parts are unrelated; each lists some results of a single study. Positions count from the first letter of the parent shown.

Block 1
Target: Fragile X messenger ribonucleoprotein 1, C-terminal low-complexity region (Fmr1, Mus musculus, UniProt P35922)
Technique: RNA Bind-n-Seq
Form: RNA
Matrix: in vitro
Concentration: 200 nM
Setting: whole 134-nt RNA, ends assumed
Together with: 150 mM KCl
Relative to: input library
Reading: higher = stronger binding
Constant ends, left off below: GGGAGUUCUACAGUCCGACGAUC … UGGAAUUCUCGGGUGUCAAGG
`GCAGGAAGUAAAAACAAAGGGAAAUGCUUCGGAUAGUGGCAGGGGUGGGGGUUGCUAAGGAAAGGGUGGGAUGGGAGUGGGUAAAGAGUU` has a log2 enrichment of 0.687.
With `UGGGAGGUGGAUUUUGUUUAUUUUUUUAGCUCAUUUCCAGGGGUGGGAAUUUUUUUUUAAUAUGUGUCAUGAAUUAAGUUGUUUUUGAAA` the log2 enrichment was 0.39.
The log2 enrichment of `AAGUCCUGUGCUACACAUCGUAUGUACCGAAUCGGGAAAGGGUGGGAAAAAAAGGGAAAGUAUUAUGUUACGCCGUUCGGAUCUGCACUU` is reported as 0.35.
For `CUGUGCUACACAUCGUAUGUACCGAAUCGGGGUUUUUUUGGGUUUUUUUGGUUUUUUUGGGAAAGUAUUAUGUUACGCCGUUCGGAUCUG`, the log2 enrichment was -0.796.
`AGUCCUGUGCUACACAUCGUAUGUACCGAAUCGGGGAAAAGGAAAAGGGGAAAAGGGGAAAGUAUUAUGUUACGCCGUUCGGAUCUGCAC` gave a log2 enrichment of 0.185.
The log2 enrichment of `CAAGUCCUGUGCUACACAUCGUAUGUACCGAAUCGGGAGGGAGGGUUUUUUUGGGAAAGUAUUAUGUUACGCCGUUCGGAUCUGCACUUC` is reported as 0.839.
`CACAGACAACACGCACCCACACAGACACAGAGGGAAGGGGUAGGGAUGGGGACAGGGUGCACAGCAGGGCGGGGUAGGACCCCAGCCCCU` has a log2 enrichment of 1.14.
The log2 enrichment of `UAACUUUAGAGGAGGAUCUGAUGGAUAUGGCAGUGGACGUGGAUUUGGGGAUGGCUAUAAUGGGUAUGGUGGAGGACCUGGAGGUGGCAA` is reported as 0.27.
With `CACAGACAACACGCACCCACACAGACACAGAGGGAAGGGGUUGGGAUGGGGACAGGGUGCACAGCAGGGCUGGGUAGGACCCCAGCCCCU` the log2 enrichment was 1.4.

Block 2
Target: UBE2E2 UBC core domain (UniProt Q96LR5)
Chain of UniProt Q96LR5 (whole entry, looked up): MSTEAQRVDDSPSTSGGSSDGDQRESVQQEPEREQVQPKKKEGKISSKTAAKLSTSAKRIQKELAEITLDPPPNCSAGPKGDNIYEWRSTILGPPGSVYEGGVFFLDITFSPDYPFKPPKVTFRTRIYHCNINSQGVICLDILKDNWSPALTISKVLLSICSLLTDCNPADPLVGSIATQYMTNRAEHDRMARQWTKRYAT
Technique: yeast two-hybrid
Matrix: yeast
Setting: mostly zero background
Relative to: not given
Reading: higher = stronger interaction
B1: RC3H1 RING domain (UniProt Q5TC82); chain QAPQWTDFLSCPICTQTFDETIRKPISLGCGHTVCKMCLNKLHRKACPFDQTTINTDIELL
B2: TRIM13 RING domain (UniProt O60858); chain MELLEEDLTCPICCSLFDDPRVLPCSHNFCKKCLEGILEGSVRNSLWRPAPFKCPTCRKETSATGINS
B3: RNF208 RING domain (UniProt Q9H0X6); chain SSAAAGEPLECPTCGHSYNVTQRRPRVLSCLHSVCEQCLQILYESCPKYKFISCPTCRRETVLFTDYG
B4: SH3RF2 RING domain (UniProt Q8TEC5); chain DDLTLLDLLECPVCFEKLDVTAKVLPCQHTFCKPCLQRVFKAHKELRCPECRTPVFSNIEAL
`QVDKAVFHMQSVKCLKCQEQKRAVLPCQHAALCELCAEGSECPICQPGRAHTLQS (UNK RING domain (UniProt Q9C0B0))` — result for “lacZ reporter activity”: 0.
`B1 (RC3H1 RING domain)` — result for “lacZ reporter activity”: 0.
`B2 (TRIM13 RING domain)` — result for “lacZ reporter activity”: 0.
`B3 (RNF208 RING domain)` — result for “lacZ reporter activity”: 0.
Under “lacZ reporter activity”, `B4 (SH3RF2 RING domain)` is recorded as 0.
`VEPSEENSKDCVVCQNGTVNWVLLPCRHTCLCDGCVKYFQQCPMCRQFVQESFALC (CGRRF1 RING domain (UniProt Q99675))` — result for “lacZ reporter activity”: 0.

Block 3
Target: ABI1, truncated, D143A, DHFR fusion (Arabidopsis thaliana)
Technique: DHFR PCA, deep sequencing
Matrix: yeast
Setting: methotrexate growth selection, single substitutions
Together with: (+)-ABA 4.8 µM
Relative to: wild-type fitted maximum
Reading: higher = stronger binding
Starting sequence: PYL1, truncated, DHFR fusion (Arabidopsis thaliana); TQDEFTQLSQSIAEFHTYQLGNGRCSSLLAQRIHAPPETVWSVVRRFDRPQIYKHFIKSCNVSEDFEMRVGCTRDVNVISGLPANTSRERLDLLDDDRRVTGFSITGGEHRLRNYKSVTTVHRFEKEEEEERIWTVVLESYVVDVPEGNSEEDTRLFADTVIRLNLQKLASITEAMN
`C60W`: “relative binding score” 7.74%.
Under “relative binding score”, `G21V` is recorded as 72.8%.
`R45S` — result for “relative binding score”: 24.1%.
`L91I` — result for “relative binding score”: -7.87%.
Under “relative binding score”, `L28Y` is recorded as 5%.
For `E127A`, “relative binding score” read 77.4%.
`L164Y` — result for “relative binding score”: 78%.
For `N149M`, “relative binding score” read 19%.
For `E139H`, “relative binding score” read 26%.
For `T86L`, “relative binding score” read 32.3%.
`S117H`: “relative binding score” -7.61%.
`R132H` — result for “relative binding score”: 86.1%.

Block 4
Target: CCNE1, cyclin fold, Cln2 fusion (human)
Technique: yeast growth competition, sequencing
Matrix: yeast
Setting: strong parent motif
Relative to: not given
Reading: higher = stronger binding
Starting sequence: ANKRD17 docking peptide (human); PSVRRQLFVTVVK
`PAVRRQLFVTVVK [S2A]`: “normalised enrichment score” 3.97.
`PSVRRQLFVTVVA [K13A]`: “normalised enrichment score” 4.75.
Under “normalised enrichment score”, `PSVRAQLFVTVVK [R5A]` is recorded as 1.82.
For `PSVRKQLFVTVVK [R5K]`, “normalised enrichment score” read 1.09.
`PSVARQLFVTVVK [R4A]` — result for “normalised enrichment score”: 2.16.
`PSVRRQLFVAVVK [T10A]`: “normalised enrichment score” 4.81.
Under “normalised enrichment score”, `ASVRRQLFVTVVK [P1A]` is recorded as 4.4.

For quick reference, copied from above (block 1):
`AGUCCUGUGCUACACAUCGUAUGUACCGAAUCGGGGAAAAGGAAAAGGGGAAAAGGGGAAAGUAUUAUGUUACGCCGUUCGGAUCUGCAC` gave a log2 enrichment of 0.185.
The log2 enrichment of `CAAGUCCUGUGCUACACAUCGUAUGUACCGAAUCGGGAGGGAGGGUUUUUUUGGGAAAGUAUUAUGUUACGCCGUUCGGAUCUGCACUUC` is reported as 0.839.
`CACAGACAACACGCACCCACACAGACACAGAGGGAAGGGGUAGGGAUGGGGACAGGGUGCACAGCAGGGCGGGGUAGGACCCCAGCCCCU` has a log2 enrichment of 1.14.
The log2 enrichment of `UAACUUUAGAGGAGGAUCUGAUGGAUAUGGCAGUGGACGUGGAUUUGGGGAUGGCUAUAAUGGGUAUGGUGGAGGACCUGGAGGUGGCAA` is reported as 0.27.
